# Assay results gathered from unrelated publications.
# Protocols differ between the studies behind these lines.
# Organism: Escherichia coli
SMILES,assay,system,conditions,MIC
CCn1c(-c2ccc(-c3ccc(F)cc3)cc2)c(-c2ccc(-c3ccc(F)cc3)cc2)n(CC)c1=[Se],broth microdilution,carbapenem-resistant BAA-2140,24 h,> 40 µM
CC[C@H](C)[C@H](NC(=O)[C@@H](CCCNC(=N)N)NC(=O)[C@H](CCCNC(=N)N)NC(=O)[C@H](CO)NC(=O)[C@H](Cc1c[nH]c2ccccc12)NC(=O)[C@H](CCCNC(=N)N)NC(=O)[C@@H]1CCCN1C(=O)[C@H](CCCNC(=N)N)NC(=O)[C@@H]1CCCN1C(=O)[C@H](CC(C)C)NC(=O)[C@H](Cc1ccc(O)cc1)NC(=O)[C@@H]1CCCN1C(=O)[C@@H]1CCCN1C(=O)[C@H](CCCCN)NC(=O)[C@H](CC(=O)O)NC(=O)[C@@H](N)C(C)C)C(=O)N[C@@H](Cc1ccc(O)cc1)C(=O)N[C@@H](CC(N)=O)C(=O)N[C@H](CCCNC(=N)N)C(N)=O,broth microdilution,BW25113,"18 h, 37 °C, 25% MHB2",8 µg/mL
CCCCCCCC(=O)N[C@@H](CCN)C(=O)N[C@H](C(=O)N[C@@H](CCN)C(=O)N[C@H]1CCNC(=O)[C@H]([C@@H](C)O)NC(=O)[C@H](CCN)NC(=O)[C@H](CCN)NC(=O)[C@H](CCCc2ccccc2)NC(=O)[C@@H](Cc2ccccc2)NC(=O)[C@H](CCN)NC1=O)[C@@H](C)O,broth microdilution,ATCC 25922,,< 0.125 µg/mL
C#CCO/N=C(\C(=O)N[C@@H]1C(=O)N(S(=O)(=O)O)[C@H]1C)c1csc(N)n1,agar dilution,CDC 1001728 NDM-1,,16 µg/mL
CC[C@H](C)[C@H](NC(=O)[C@@H](CCCNC(=N)N)NC(=O)[C@H](CCCNC(=N)N)NC(=O)[C@@H]1CCCN1C(=O)[C@@H]1CCCN1C(=O)[C@H](CCCNC(=N)N)NC(=O)[C@@H]1CCCN1C(=O)[C@H](CCCNC(=N)N)NC(=O)[C@@H]1CCCN1C(=O)[C@H](CC(C)C)NC(=O)[C@H](Cc1ccc(O)cc1)NC(=O)[C@@H]1CCCN1C(=O)[C@@H]1CCCN1C(=O)[C@H](CCCCN)NC(=O)[C@H](CC(=O)O)NC(=O)[C@@H](N)C(C)C)C(=O)N[C@@H](Cc1cc(I)c(O)c(I)c1)C(=O)N[C@@H](CC(N)=O)C(=O)N[C@H](CCCNC(=N)N)C(N)=O,broth microdilution,ATCC 25922,"18 h, 37 °C, 25% MHB2",16 µg/mL
CC(C)C[C@@H](NC(=O)[C@@H](CCCNC(=N)N)NC(=O)[C@H](N)CCCNC(=N)N)C(=O)N[C@H](CC(C)C)C(=O)N[C@H](CCCNC(=N)N)C(=O)N[C@H](CCCCN)C(=O)N[C@H](CC(C)C)C(=O)N[C@H](CCCCN)C(=O)NCC(=O)N[C@H](CCCCN)C(=O)N[C@H](CCCCN)C(=O)N[C@H](CC(C)C)C(=O)N[C@H](Cc1ccc(O)cc1)C(=O)N[C@H](CC(C)C)C(=O)N[C@H](Cc1ccc(O)cc1)C(=O)N[C@H](Cc1ccccc1)C(=O)N[C@H](CCCCN)C(=O)N[C@H](CC(C)C)C(=O)N[C@H](CCC(N)=O)C(=O)N[C@H](CC(C)C)C(=O)N[C@H](CC(C)C)C(=O)N[C@H](CCCCN)C(=O)N[C@H](CCCCN)C(N)=O,,"KCTC 1682, Mueller-Hinton broth",with: 1 mM MgCl2,16 µM
CC[C@H](C)[C@H](NC(=O)[C@@H](CCCNC(=N)N)NC(=O)[C@H](CCCNC(=N)N)NC(=O)[C@@H]1CCCN1C(=O)[C@@H]1CCCN1C(=O)[C@H](CCCNC(=N)N)NC(=O)[C@@H]1CCCN1C(=O)[C@H](CCCNC(=N)N)NC(=O)[C@@H]1CCCN1C(=O)[C@H](CC(C)C)NC(=O)[C@H](Cc1ccc(O)cc1)NC(=O)[C@@H]1CCCN1C(=O)[C@@H]1CCCN1C(=O)[C@H](CCCCN)NC(=O)[C@H](CCCNC(=N)N)NC(=O)[C@@H](N)C(C)C)C(=O)N[C@@H](Cc1ccc(O)cc1)C(=O)N[C@@H](CC(N)=O)C(=O)N[C@H](CCCNC(=N)N)C(N)=O,broth microdilution,MC4100,"18 h, 37 °C, 25% MHB2",8 µg/mL
CC(C)[C@@H]1NC(=O)[C@@H](CCCNC(=N)N)NC(=O)[C@H]([C@@H](C)O)NC(=O)[C@@H](CCCN)NC(=O)[C@H](Cc2ccccc2)NC(=O)[C@@H](Cc2ccccc2)NC1=O,,"AR0346, colistin-resistant",with: colistin,> 64 µg/mL
CC[C@H](C)[C@H](NC(=O)[C@@H]1CCCN1C(=O)CNC(=O)[C@H](CC(C)C)NC(=O)[C@H](CCCCN)NC(=O)[C@H](CCCNC(=N)N)NC(=O)[C@H](Cc1c[nH]c2ccccc12)NC(=O)[C@H](C)NC(=O)[C@H](CC(N)=O)NC(=O)[C@H](CCCCN)NC(=O)[C@H](CC(C)C)NC(=O)[C@H](CCCCN)NC(=O)[C@H](CC(N)=O)NC(=O)[C@H](CCCNC(=N)N)NC(=O)[C@H](C)NC(=O)[C@H](CCCNC(=N)N)NC(=O)[C@H](CCCNC(=N)N)NC(=O)[C@H](Cc1ccccc1)NC(=O)[C@H](Cc1c[nH]c2ccccc12)NC(=O)CN)C(=O)N[C@H](C(=O)NCC(=O)N1CCC[C@H]1C(=O)N[C@@H](CC(C)C)C(=O)N[C@@H](CC(C)C)C(=O)N[C@H](C(=O)N[C@@H](CCCNC(=N)N)C(=O)O)[C@@H](C)O)C(C)C,broth microdilution,"ATCC 25922, Mueller-Hinton broth","16 to 20 h, 37 °C",2.2 µg/mL
CC1(C)[C@H](NC(=O)/C(=N\OCC(=O)N2CCC(C(=O)O)CC2)c2csc(N)n2)C(=O)N1OS(=O)(=O)O,agar dilution,"CDC 1001728, NDM-1",,16 µg/mL
CC[C@H](C)[C@H](NC(=O)[C@@H](NC(=O)[C@H](CCCCN)NC(=O)[C@H](CCCCN)NC(=O)[C@@H](NC(=O)[C@H](Cc1c[nH]c2ccccc12)NC(=O)[C@H](CCCCN)NC(=O)[C@@H](NC(=O)[C@H](CC(C)C)NC(=O)[C@H](CCCCN)NC(=O)[C@H](CCCCN)NC(=O)[C@@H](N)C(C)C)[C@@H](C)CC)[C@@H](C)CC)C(C)C)C(N)=O,,,"24 h, 37 °C, Mueller-Hinton broth, KCl 4.5 mM",64 µM
CC[C@H](C)[C@H](NC(=O)[C@@H](CCCNC(=N)N)NC(=O)[C@H](CCCNC(=N)N)NC(=O)CNC(=O)[C@H](Cc1c[nH]c2ccccc12)NC(=O)[C@H](CCCNC(=N)N)NC(=O)[C@@H]1CCCN1C(=O)[C@H](CCCNC(=N)N)NC(=O)[C@@H]1CCCN1C(=O)[C@H](CC(C)C)NC(=O)[C@H](Cc1ccc(O)cc1)NC(=O)[C@@H]1CCCN1C(=O)[C@@H]1CCCN1C(=O)[C@H](CCCCN)NC(=O)[C@H](CC(=O)O)NC(=O)[C@@H](N)C(C)C)C(=O)N[C@@H](Cc1ccc(O)cc1)C(=O)N[C@@H](CC(N)=O)C(=O)N[C@H](CCCNC(=N)N)C(N)=O,broth microdilution,MC4100,"18 h, 37 °C, 25% MHB2",4 µg/mL
CC[C@H](C)[C@H](NC(=O)[C@H](C)NC(=O)[C@@H](NC(=O)[C@H](CC(=O)O)NC(=O)[C@H](CCCCN)NC(=O)[C@H](CO)NC(=O)[C@@H](NC(=O)[C@H](CC(N)=O)NC(=O)[C@H](C)NC(=O)[C@@H](NC(=O)[C@H](CCC(=O)O)NC(=O)[C@H](CCCCN)NC(=O)[C@@H](NC(=O)[C@@H](NC(=O)[C@H](Cc1c[nH]cn1)NC(=O)[C@H](CCCCN)NC(=O)[C@@H](NC(=O)[C@H](CCCCN)NC(=O)[C@H](CCCCN)NC(=O)[C@@H](NC(=O)[C@H](CC(C)C)NC(=O)[C@H](CCCCN)NC(=O)[C@H](CC(N)=O)NC(=O)[C@H](Cc1ccccc1)NC(=O)[C@H](CCCNC(=N)N)NC(=O)[C@H](CCCCN)NC(=O)[C@H](CCCNC(=N)N)NC(=O)[C@H](Cc1ccccc1)NC(=O)CN)C(C)C)C(C)C)[C@@H](C)O)[C@@H](C)CC)[C@@H](C)O)C(C)C)C(C)C)C(=O)N[C@H](C(=O)N[C@@H](C)C(=O)NCC(=O)N[C@@H](CO)C(=O)NCC(=O)N[C@H](C(=O)N[C@@H](C)C(=O)N[C@H](C(=O)NCC(=O)N[C@@H](C)C(=O)N[C@@H](C)C(=O)N[C@@H](CCSC)C(N)=O)C(C)C)C(C)C)C(C)C,broth microdilution,"D31, CAMHB",,4 µg/mL
CSCC[C@H](NC=O)C(=O)N[C@@H](CCCNC(=N)N)C(=O)N[C@H](C(=O)NCC(=O)N[C@@H](CC(N)=O)C(=O)N[C@@H](C)C(=O)N[C@@H](CC(N)=O)C(=O)NCC(=O)N1CCN(c2cc3c(cc2F)c(=O)c(C(=O)O)cn3C2CC2)CC1)[C@@H](C)O,broth dilution,K12 MG1655 efflux knock-out,,0.78 µM
CCCC[C@H](NC(=O)[C@H](Cc1ccc(O)cc1)NC(=O)[C@@H]1CCCN1C(=O)[C@@H]1CCCN1C(=O)[C@H](CCCCN)NC(=O)[C@H](CC(=O)O)NC(=O)[C@@H](N)C(C)C)C(=O)N1CCC[C@H]1C(=O)N[C@@H](CCCNC(=N)N)C(=O)N1CCC[C@H]1C(=O)N[C@@H](CCCNC(=N)N)C(=O)N1CCC[C@H]1C(=O)N1CCC[C@H]1C(=O)N[C@@H](CCCNC(=N)N)C(=O)N[C@H](CCCNC(=N)N)C(=O)N[C@H](C(=O)N[C@@H](Cc1ccc(O)cc1)C(=O)N[C@@H](CC(N)=O)C(=O)N[C@H](CCCNC(=N)N)C(N)=O)[C@@H](C)CC,broth microdilution,MC4100,"18 h, 37 °C, 25% MHB2",8 µg/mL
CC[C@H](C)[C@H](NC(=O)[C@H](CCCNC(=N)N)NC(=O)[C@H](CO)NC(=O)[C@H](Cc1ccc(O)cc1)NC(=O)[C@@H](NC(=O)[C@@H](NC(=O)[C@H](C)NC(=O)CNC(=O)[C@H](CCCCN)NC(=O)[C@H](CCCCN)NC(=O)CCNC(=O)CCCCCNC(=O)[C@H](CCCNC(=N)N)NC(=O)CCCCCNC(=O)[C@H](CCCNC(=N)N)NC(=O)[C@H](CCCNC(=N)N)NC(=O)CCCCCNC(=O)[C@H](CCCNC(=N)N)NC(=O)[C@H](CCCNC(=N)N)NC(=O)CCCCCNC(=O)[C@H](CCCNC(=N)N)NC(=O)[C@H](CCCNC(=N)N)NC(=O)CCCCCNC(=O)[C@@H](N)CCCNC(=N)N)C(C)C)[C@@H](C)O)C(=O)N[C@@H](CO)C(=O)NCC(=O)N[C@@H](CCC(N)=O)C(=O)N[C@@H](Cc1ccc(O)cc1)C(=O)N[C@@H](CCCCN)C(=O)O,,"ATCC 25922, Mueller-Hinton broth",no added salt,6 µM
